Assay results gathered from unrelated publications.
Compare with care: the assays were run in different laboratories. Numbers after ± are the reported error.
Mapk1: Mitogen-activated protein kinase 1 (Mapk1, Rattus norvegicus, UniProt P63086)
Sequence of UniProt P63086 (whole entry, looked up): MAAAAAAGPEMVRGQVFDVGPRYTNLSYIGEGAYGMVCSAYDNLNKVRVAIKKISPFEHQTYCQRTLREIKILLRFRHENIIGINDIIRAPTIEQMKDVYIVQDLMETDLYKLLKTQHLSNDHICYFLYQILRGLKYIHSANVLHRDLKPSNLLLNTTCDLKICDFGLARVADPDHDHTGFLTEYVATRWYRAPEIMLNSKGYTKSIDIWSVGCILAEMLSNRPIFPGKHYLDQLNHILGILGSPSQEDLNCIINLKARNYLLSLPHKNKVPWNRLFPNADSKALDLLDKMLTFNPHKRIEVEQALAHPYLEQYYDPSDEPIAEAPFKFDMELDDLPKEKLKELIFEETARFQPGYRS
Sequence of UniProt P08172 (whole entry, looked up): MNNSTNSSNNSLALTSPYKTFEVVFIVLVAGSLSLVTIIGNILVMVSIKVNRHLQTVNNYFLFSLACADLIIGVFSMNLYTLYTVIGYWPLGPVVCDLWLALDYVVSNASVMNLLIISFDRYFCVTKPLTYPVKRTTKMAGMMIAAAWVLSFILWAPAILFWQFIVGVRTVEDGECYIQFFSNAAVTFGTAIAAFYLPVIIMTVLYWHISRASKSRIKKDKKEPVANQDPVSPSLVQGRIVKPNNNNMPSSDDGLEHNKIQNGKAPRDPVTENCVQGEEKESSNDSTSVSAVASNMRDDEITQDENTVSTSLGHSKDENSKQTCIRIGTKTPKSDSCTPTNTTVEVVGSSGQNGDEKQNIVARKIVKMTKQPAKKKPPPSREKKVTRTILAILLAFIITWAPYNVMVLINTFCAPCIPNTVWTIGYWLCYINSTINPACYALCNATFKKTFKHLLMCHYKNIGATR
Sequence of UniProt P05177 (whole entry, looked up): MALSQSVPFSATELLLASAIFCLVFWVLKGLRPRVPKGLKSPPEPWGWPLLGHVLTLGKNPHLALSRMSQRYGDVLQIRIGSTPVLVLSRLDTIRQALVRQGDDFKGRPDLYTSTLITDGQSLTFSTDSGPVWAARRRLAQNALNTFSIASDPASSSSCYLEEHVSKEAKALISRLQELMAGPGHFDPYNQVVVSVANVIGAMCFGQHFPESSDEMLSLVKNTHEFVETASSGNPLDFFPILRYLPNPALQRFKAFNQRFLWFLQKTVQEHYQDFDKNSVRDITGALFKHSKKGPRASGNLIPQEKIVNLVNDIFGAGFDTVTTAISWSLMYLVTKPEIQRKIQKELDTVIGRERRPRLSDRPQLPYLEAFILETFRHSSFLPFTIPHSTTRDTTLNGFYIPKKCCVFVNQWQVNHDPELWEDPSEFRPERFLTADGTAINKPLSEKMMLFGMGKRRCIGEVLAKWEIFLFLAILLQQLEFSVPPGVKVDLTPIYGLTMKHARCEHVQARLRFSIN
Sequence of UniProt Q9BV23 (whole entry, looked up): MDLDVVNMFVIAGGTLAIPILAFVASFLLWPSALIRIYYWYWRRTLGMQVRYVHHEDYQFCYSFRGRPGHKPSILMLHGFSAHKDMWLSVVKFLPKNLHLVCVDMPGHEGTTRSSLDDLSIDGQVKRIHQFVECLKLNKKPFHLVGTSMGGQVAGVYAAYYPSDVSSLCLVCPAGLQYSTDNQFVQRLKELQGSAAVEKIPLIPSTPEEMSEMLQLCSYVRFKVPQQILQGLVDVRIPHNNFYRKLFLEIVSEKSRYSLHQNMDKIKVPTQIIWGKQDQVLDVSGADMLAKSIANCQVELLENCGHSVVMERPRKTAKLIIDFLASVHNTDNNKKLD
Sequence of UniProt P00915 (whole entry, looked up): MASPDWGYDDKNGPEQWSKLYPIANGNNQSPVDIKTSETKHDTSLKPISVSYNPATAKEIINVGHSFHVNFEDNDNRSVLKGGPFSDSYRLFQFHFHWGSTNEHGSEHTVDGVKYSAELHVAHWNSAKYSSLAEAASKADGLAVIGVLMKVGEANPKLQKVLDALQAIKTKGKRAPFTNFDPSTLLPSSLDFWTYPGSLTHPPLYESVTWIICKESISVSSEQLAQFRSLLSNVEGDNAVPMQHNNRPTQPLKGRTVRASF
Sequence of UniProt Q08345 (whole entry, looked up): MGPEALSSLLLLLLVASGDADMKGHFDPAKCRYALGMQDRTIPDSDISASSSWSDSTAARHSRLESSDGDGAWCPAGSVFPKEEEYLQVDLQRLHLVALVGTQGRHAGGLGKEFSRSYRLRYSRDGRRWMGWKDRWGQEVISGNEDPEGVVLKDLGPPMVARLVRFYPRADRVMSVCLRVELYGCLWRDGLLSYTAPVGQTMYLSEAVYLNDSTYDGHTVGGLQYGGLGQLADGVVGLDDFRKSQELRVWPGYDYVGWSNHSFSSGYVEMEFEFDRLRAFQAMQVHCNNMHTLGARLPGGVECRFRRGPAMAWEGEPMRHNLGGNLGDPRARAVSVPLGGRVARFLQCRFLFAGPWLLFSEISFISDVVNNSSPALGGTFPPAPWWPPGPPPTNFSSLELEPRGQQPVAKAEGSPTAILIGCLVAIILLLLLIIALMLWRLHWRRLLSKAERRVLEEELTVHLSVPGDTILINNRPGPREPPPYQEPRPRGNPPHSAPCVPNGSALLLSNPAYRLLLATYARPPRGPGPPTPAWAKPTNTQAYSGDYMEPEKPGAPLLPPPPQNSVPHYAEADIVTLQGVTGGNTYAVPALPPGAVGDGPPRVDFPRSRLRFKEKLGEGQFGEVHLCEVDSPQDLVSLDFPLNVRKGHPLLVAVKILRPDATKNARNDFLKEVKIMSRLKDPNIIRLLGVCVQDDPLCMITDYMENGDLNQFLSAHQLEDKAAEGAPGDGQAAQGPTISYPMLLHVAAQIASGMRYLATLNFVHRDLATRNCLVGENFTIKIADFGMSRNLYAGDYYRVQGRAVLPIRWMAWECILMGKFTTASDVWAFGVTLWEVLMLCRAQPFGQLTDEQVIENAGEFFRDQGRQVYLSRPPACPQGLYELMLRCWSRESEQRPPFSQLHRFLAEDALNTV
Sequence of UniProt Q8WWR8 (whole entry, looked up): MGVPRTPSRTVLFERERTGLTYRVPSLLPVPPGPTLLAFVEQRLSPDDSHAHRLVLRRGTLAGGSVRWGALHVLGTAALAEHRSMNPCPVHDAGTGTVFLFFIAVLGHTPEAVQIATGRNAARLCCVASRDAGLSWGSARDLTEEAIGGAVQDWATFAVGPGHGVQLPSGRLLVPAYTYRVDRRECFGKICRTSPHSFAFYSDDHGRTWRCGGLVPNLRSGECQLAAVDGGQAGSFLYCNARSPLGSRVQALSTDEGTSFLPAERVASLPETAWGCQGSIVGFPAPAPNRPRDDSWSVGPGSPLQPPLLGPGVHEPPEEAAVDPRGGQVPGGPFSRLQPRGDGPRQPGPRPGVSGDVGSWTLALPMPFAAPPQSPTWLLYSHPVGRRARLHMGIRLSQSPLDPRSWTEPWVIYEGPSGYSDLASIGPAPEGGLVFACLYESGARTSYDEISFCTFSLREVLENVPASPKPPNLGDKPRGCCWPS
Sequence of UniProt Q9NWZ3 (whole entry, looked up): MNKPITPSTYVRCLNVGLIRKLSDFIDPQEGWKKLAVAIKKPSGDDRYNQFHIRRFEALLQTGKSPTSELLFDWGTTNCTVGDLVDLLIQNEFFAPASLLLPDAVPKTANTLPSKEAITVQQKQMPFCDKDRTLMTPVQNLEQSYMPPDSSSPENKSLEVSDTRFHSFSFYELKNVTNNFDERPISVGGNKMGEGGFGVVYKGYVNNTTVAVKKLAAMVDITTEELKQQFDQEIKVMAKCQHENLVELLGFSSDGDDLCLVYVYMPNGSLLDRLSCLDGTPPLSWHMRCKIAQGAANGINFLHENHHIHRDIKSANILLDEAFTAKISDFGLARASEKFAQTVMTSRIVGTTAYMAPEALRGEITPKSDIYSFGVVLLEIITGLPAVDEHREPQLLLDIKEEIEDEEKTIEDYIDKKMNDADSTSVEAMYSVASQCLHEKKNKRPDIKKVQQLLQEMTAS
Sequence of UniProt P06239 (whole entry, looked up): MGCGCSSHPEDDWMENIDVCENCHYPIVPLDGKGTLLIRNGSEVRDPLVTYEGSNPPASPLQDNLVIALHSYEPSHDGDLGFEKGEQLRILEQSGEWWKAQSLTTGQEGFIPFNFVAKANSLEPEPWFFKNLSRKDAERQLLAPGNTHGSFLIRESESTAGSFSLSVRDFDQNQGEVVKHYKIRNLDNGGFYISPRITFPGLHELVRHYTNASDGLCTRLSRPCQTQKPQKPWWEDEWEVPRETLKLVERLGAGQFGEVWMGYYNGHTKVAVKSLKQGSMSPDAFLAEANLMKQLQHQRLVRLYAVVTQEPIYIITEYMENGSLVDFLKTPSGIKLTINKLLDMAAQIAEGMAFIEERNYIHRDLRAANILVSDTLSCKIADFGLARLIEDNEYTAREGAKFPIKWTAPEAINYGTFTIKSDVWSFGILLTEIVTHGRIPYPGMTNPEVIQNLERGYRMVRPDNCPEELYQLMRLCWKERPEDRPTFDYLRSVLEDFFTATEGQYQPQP

| Structure (SMILES) | tested on | test | test system | conditions | scale | quantity | value |
| --- | --- | --- | --- | --- | --- | --- | --- |
| Cc1ccc(CNC(=O)c2ccn3c(-c4ccc(C#N)cc4)cnc3c2)cn1 | Cytochrome P450 1A2 (CYP1A2, Homo sapiens, UniProt P05177) | enzyme activity, inhibitor | – | – | – | IC50 | > 10 µM |
| O=C(Oc1ccc([N+](=O)[O-])cc1)N1CCN(Cc2cccc(Oc3ccccc3)c2)CC1 | ABHD6 (Homo sapiens, UniProt Q9BV23) | enzyme activity, inhibitor | – | added: FP-biotin 1 µM | – | IC50 | 0.055 µM |
| COc1ccccc1-c1n[nH]c2nc(N[C@H]3CC[C@H](NS(=O)(=O)CC(C)C)CC3)ncc12 | – | bead binding, competition bead pull-down, item: LINJ.36.6760 | Leishmania donovani extract | 10 µM | baseline: vehicle | relative abundance | 0.94 |
| O=C1NC2(CC2)COc2ncc(F)cc2[C@H]2COCCN2c2ccn3ncc1c3n2 | – | – | Sprague-Dawley rat, male, serum | oral, 2.5 mg/kg/day, 4 weeks daily, end of recovery period | – | total cholesterol | 1.34 ± 0.28 mmol/L |
| C/C(=N\OCCCN1CCCCC1)c1ccc(C(F)(F)F)cc1 | CHRM2 (Homo sapiens, UniProt P08172) | inositol phosphate, antagonist | – | – | – | IC50 | 1.05 µM |
| CC(C)C[C@H](NC(=O)[C@H](CCCNC(=N)N)NC(=O)[C@H](CC(C)C)NC(=O)[C@@H](NC(=O)[C@H](CC(N)=O)NC(=O)[C@H](CCCCN)NC(=O)[C@H](CCCCN)NC(=O)[C@H](CCCNC(=N)N)NC(=O)[C@H](CCCCN)NC(=O)[C@@H](NC(=O)[C@H](CCCCN)NC(=O)[C@H](CCC(=O)O)NC(=O)[C@H](C)NC(=O)[C@@H](N)Cc1ccc(O)cc1)C(C)C)C(C)C)C(=O)N[C@@H](CS)C(=O)N[C@@H](CS)C(=O)O | Mapk1 | enzyme activity, inhibitor, fluorescence | – | pH 7.4 | – | IC50 | 17.6 µM |
| O=C(CN1C(=O)C2(CCN(C(=O)c3ccc4[nH]ncc4n3)CC2)c2c(Cl)cccc21)NCC(F)(F)F | DDR1 (Homo sapiens, UniProt Q08345) | ligand displacement | – | – | – | IC50 | 0.025 µM |
| COc1ccccc1-c1n[nH]c2nc(NC3CCN(C(=O)Cc4ccc(F)cc4F)CC3)ncc12 | – | bead binding, competition bead pull-down, item: LINJ.29.1360 | Leishmania donovani extract | 10 µM | baseline: vehicle | relative abundance | 0.93 |
| O=S(=O)(N/N=C/c1ccc(OS(=O)(=O)c2ccc(Br)cc2)cc1)c1ccc(Cl)cc1 | CA1 (Homo sapiens, UniProt P00915) | enzyme activity, inhibitor, absorbance | – | – | – | IC50 | 0.0636 µM |
| CC[C@H](C)[C@H](NC(=O)[C@H](CCCCN)NC(=O)[C@H](CC(C)C)NC(=O)CNC(=O)[C@@H]1CCCN1C(=O)[C@H](CC(N)=O)NC(=O)[C@H](CCCNC(=N)N)NC(=O)[C@H](CCCCN)NC(=O)[C@H](CCCCN)NC(=O)CNC(=O)[C@H](CCCCN)NC(=O)[C@H](CO)NC(=O)[C@H](C)NC(=O)[C@@H](N)Cc1ccc(O)cc1)C(=O)N1CCC[C@H]1C(=O)N[C@@H](CCCCN)C(=O)O | Mapk1 | enzyme activity, inhibitor, fluorescence | – | pH 7.4 | – | IC50 | 24 µM |
| CC(C)(C)C(=O)OCOP(=O)(OCOC(=O)C(C)(C)C)C1CCCN(O)C1=O (stereo not shown) | RPMI-8226 | – | – | – | – | log TGI | -5.95 log M |
| CN(C)[C@H]1C[C@@]23CC[C@@]4(O2)C(=CC[C@]2(C)[C@@H](c5ccc6ccncc6c5)CC[C@H]24)C=C3[C@@H](O)[C@@H]1O | IRAK4 (Homo sapiens, UniProt Q9NWZ3) | ATP probe labelling, inhibitor, KiNativ profiling | – | 0.1 µM | – | inhibition | 10.1% |
| CC[C@H](C)[C@H](NC(=O)[C@H](Cc1ccccc1)NC(=O)[C@H](CC(C)C)NC(=O)[C@@H]1CCCN1C(=O)[C@H](CCC(=O)O)NC(=O)[C@@H]1CCCN1C(=O)[C@H](CCCNC(=N)N)NC(=O)[C@H](Cc1c[nH]cn1)NC(=O)[C@H](CCCNC(=N)N)NC(=O)[C@H](Cc1ccccc1)NC(=O)[C@H](CCCCN)NC(=O)[C@H](CCCCN)NC(=O)[C@H](C)NC(=O)[C@@H](N)Cc1ccc(O)cc1)C(=O)N1CCC[C@H]1C(=O)N1CCC[C@H]1C(=O)O | Mapk1 | enzyme activity, inhibitor, fluorescence | – | pH 7.4 | – | IC50 | 5.27 µM |
| O=C(O)CCn1c(=O)oc2cc(Cl)c(Cl)cc21 | LCK (Homo sapiens, UniProt P06239) | enzyme activity, inhibitor | – | – | – | IC50 | > 31.6 µM |
| CCN(N=Cc1cnc2ccc(Br)cn12)S(=O)(=O)c1cc([N+](=O)[O-])ccc1C | PIK3CA (Homo sapiens, UniProt P42336, I771Y) | enzyme activity, inhibitor | – | – | – | IC50 | 0.661 µM |
| O=C(Nc1ccc(-c2ccccc2)cc1)N[C@H]1[C@H]([C@H](O)[C@H](O)CO)OC(C(=O)O)=C[C@@H]1O | Sialidase-4 (Homo sapiens, UniProt Q8WWR8) | enzyme activity, inhibitor | – | – | – | IC50 | > 500 µM |
